Results from different studies.
Lines come from different studies, so protocols differ. Numbers after ± are the reported error.
B1: BGLU7 (Oryza sativa, UniProt Q75I93); chain AAVPKPNWLGGLSRAAFPKRFVFGTATSAYQVEGMAASGGRGPSIWDAFAHTPGNVAGNQNGDVATDQYHRYKEDVNLMKSLNFDAYRFSISWSRIFPDGEGRVNQEGVAYYNNLINYLLQKGITPYVNLYHYDLPLALEKKYGGWLNAKMADLFTEYADFCFKTFGNRVKHWFTFNEPRIVALLGYDQGTNPPKRCTKCAAGGNSATEPYIVAHNFLLSHAAAVARYRTKYQAAQQGKVGIVLDFNWYEALSNSTEDQAAAQRARDFHIGWYLDPLINGHYPQIMQDLVKDRLPKFTPEQARLVKGSADYIGINQYTASYMKGQQLMQQTPTSYSADWQVTYVFAKNGKPIGPQANSNWLYIVPWGMYGCVNYIKQKYGNPTVVITENGMDQPANLSRDQYLRDTTRVHFYRSYLTQLKKAIDEGANVAGYFAWSLLDNFEWLSGYTSKFGIVYVDFNTLERHPKASAYWFRDMLKH
B2: bglA A17S (Acetivibrio thermocellus, UniProt P26208); chain MSKITFPKDFIWGSATSAYQIEGAYNEDGKGESIWDRFSHTPGNIADGHTGDVACDHYHRYEEDIKIMKEIGIKSYRFSISWPRIFPEGTGKLNQKGLDFYKRLTNLLLENGIMPAITLYHWDLPQKLQDKGGWKNRDTTDYFTEYSEVIFKNLGDIVPIWFTHNEPGVVSLLGHFLGIHAPGIKDLRTSLEVSHNLLLSHGKAVKLFREMNIDAQIGIALNLSYHYPASEKAEDIEAAELSFSLAGRWYLDPVLKGRYPENALKLYKKKGIELSFPEDDLKLISQPIDFIAFNNYSSEFIKYDPSSESGFSPANSILEKFEKTDMGWIIYPEGLYDLLMLLDRDYGKPNIVISENGAAFKDEIGSNGKIEDTKRIQYLKDYLTQAHRAIQDGVNLKAYYLWSLLDNFEWAYGYNKRFGIVHVNFDTLERKIKDSGYWYKEVIKNNGF
B3: enzyme (Klebsiella pneumoniae, UniProt A6TH53); chain MAAKDVKFGNDARVKMLRGVNVLADAVKVTLGPKGRNVVLDKSFGAPTITKDGVSVAREIELEDKFENMGAQMVKEVASKANDAAGDGTTTATVLAQAIVNEGLKAVAAGMNPMDLKRGIDKAVLAAVEELKALSVPCSDSKAIAQVGTISANSDETVGKLIAEAMDKVGKEGVITVEDGTGLEDELDVVEGMQFDRGYLSPYFINKPDTGAVELESPFILLADKKISNIREMLPVLEAVAKAGKPLVIIAEDVEGEALATLVVNTMRGIVKVAAVKAPGFGDRRKAMLQDIATLTGGTVISEEIGMELEKATLEDLGQAKRVVINKDTTTIIDGVGEESAIQGRVAQIRKQIEEATSDYDREKLQERVAKLAGGVAVIKVGAATEVEMKEKKARVDDALHATRAAVEEGVVAGGGVALVRVAAKLAGLTGQNEDQNVGIKVALRAMEAPLRQIVSNAGEEPSVVANNVKAGDGNYGYNAATEEYGNMIDFGILDPTKVTRSALQYAASVAGLMITTECMVTDLPKGDAPDLGAAGGMGGMGGMGGMM
B4: bglA A17S/S39T/T105V (Acetivibrio thermocellus, UniProt P26208); chain MSKITFPKDFIWGSATSAYQIEGAYNEDGKGESIWDRFTHTPGNIADGHTGDVACDHYHRYEEDIKIMKEIGIKSYRFSISWPRIFPEGTGKLNQKGLDFYKRLVNLLLENGIMPAITLYHWDLPQKLQDKGGWKNRDTTDYFTEYSEVIFKNLGDIVPIWFTHNEPGVVSLLGHFLGIHAPGIKDLRTSLEVSHNLLLSHGKAVKLFREMNIDAQIGIALNLSYHYPASEKAEDIEAAELSFSLAGRWYLDPVLKGRYPENALKLYKKKGIELSFPEDDLKLISQPIDFIAFNNYSSEFIKYDPSSESGFSPANSILEKFEKTDMGWIIYPEGLYDLLMLLDRDYGKPNIVISENGAAFKDEIGSNGKIEDTKRIQYLKDYLTQAHRAIQDGVNLKAYYLWSLLDNFEWAYGYNKRFGIVHVNFDTLERKIKDSGYWYKEVIKNNGF
B5: enzyme (Enterococcus faecalis, UniProt Q836M4); chain MEIHFEKVTSDNRKAVENLQVFAEQQAFIESMAENLKESDQFPEWESAGIYDGNQLIGYAMYGRWQDGRVWLDRFLIDQRFQGQGYGKAACRLLMLKLIEKYQTNKLYLSVYDTNSSAIRLYQQLGFVFNGELDTNGERVMEWTHQNK
Sequence of UniProt O95551 (whole entry, looked up): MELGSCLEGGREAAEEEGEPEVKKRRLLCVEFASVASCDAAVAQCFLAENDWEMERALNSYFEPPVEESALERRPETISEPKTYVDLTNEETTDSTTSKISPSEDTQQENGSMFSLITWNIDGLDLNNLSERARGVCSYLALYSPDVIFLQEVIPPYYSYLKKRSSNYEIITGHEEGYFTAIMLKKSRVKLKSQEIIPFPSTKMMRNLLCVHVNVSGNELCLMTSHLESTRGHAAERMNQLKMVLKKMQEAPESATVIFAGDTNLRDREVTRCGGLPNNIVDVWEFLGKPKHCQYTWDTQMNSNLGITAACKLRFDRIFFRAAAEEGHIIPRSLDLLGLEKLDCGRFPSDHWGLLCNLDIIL
Sequence of UniProt O31616 (whole entry, looked up): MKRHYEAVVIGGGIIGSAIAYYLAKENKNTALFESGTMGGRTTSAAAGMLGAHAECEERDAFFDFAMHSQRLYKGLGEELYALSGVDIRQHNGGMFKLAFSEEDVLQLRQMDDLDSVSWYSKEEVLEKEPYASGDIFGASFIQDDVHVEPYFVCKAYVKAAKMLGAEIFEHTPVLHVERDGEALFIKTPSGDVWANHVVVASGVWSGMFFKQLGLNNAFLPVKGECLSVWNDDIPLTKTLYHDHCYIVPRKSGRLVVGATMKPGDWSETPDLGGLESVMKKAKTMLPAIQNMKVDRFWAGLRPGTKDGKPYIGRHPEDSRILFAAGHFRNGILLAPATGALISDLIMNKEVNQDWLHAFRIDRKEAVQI
Sequence of UniProt Q9I4K6 (whole entry, looked up): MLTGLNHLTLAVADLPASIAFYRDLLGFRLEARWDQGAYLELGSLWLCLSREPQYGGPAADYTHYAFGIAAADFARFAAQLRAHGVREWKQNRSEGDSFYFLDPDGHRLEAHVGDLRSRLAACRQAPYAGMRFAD
Sequence of UniProt P0CJ63 (whole entry, looked up): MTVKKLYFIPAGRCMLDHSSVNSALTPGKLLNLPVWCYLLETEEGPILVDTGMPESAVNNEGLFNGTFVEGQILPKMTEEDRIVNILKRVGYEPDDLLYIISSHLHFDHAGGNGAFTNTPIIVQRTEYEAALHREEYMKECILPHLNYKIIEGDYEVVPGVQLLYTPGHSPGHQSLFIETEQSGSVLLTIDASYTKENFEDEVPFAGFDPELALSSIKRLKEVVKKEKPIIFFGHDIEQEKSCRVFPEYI

| Molecule | target or system | test | test system | setting | how to read | quantity | value |
| --- | --- | --- | --- | --- | --- | --- | --- |
| fosA (Pseudomonas aeruginosa, UniProt Q9I4K6) | C[C@@H]1O[C@@H]1P(=O)(O)O | steady-state kinetics |  |  |  | kcat/Km | 900000 ± 140000 M⁻¹ s⁻¹ |
| GcL (Parageobacillus, UniProt A0A023DFE8) | CCCC(=O)N[C@H]1CCOC1=O | steady-state kinetics |  | pH 8.3, added: CoCl2 0.2 mM |  | kcat/Km | 34000 ± 10000 M⁻¹ s⁻¹ |
| TDP2 (Homo sapiens, UniProt O95551) | Cc1cn([C@H]2C[C@H](O)[C@@H](COP(=O)(O)Oc3ccc([N+](=O)[O-])cc3)O2)c(=O)[nH]c1=O | steady-state kinetics |  |  |  | kcat/Km | 556 M⁻¹ s⁻¹ |
| Cj1438c (Campylobacter jejuni, UniProt Q0P8H6) | NCCOP(=O)(O)O | steady-state kinetics |  | pH 8, 25 °C, apparent |  | kcat/Km | 12000 ± 4000 M⁻¹ s⁻¹ |
| enzyme (UniProt I4BZH5) | N=C(N)NCCC[C@H](N)C(=O)O | steady-state kinetics |  | pH 8, 30 °C |  | kcat/Km | 26900 ± 900 M⁻¹ s⁻¹ |
| insulin human |  | refers to: EPHA5 mRNA | uninfected mouse, brain | i.p., dose not given | reference: PBS | fold change | 1.16 |
| B1 (BGLU7) | CC(C)(C#N)O[C@@H]1O[C@H](CO)[C@@H](O)[C@H](O)[C@H]1O | steady-state kinetics |  | pH 6, 30 °C, not purified |  | kcat/Km | 1200 ± 510 M⁻¹ s⁻¹ |
| rCR L34A (Lodderomyces parapsilosis) | CC(=O)c1ccc(Cl)cc1 | steady-state kinetics |  | pH 7, 30 °C, added: NADH 0.5 mM |  | kcat/Km | 13500 M⁻¹ s⁻¹ |
| enzyme (Bacillus thuringiensis, UniProt P0CJ63) | CCCC(=O)N[C@H]1CCSC1=O | steady-state kinetics |  | pH 8, added: CoCl2 0.2 mM, DTNB 2 mM |  | kcat/Km | 96300 ± 18400 M⁻¹ s⁻¹ |
| fcl (Campylobacter jejuni, UniProt Q0P8I6) | Nc1nc2c(ncn2[C@@H]2O[C@H](COP(=O)(O)OP(=O)(O)O[C@H]3O[C@@H](CCO)C(=O)[C@@H](O)[C@@H]3O)[C@@H](O)[C@H]2O)c(=O)[nH]1 | steady-state kinetics |  | pH 7.5, 25 °C, apparent |  | kcat/Km | 33000 M⁻¹ s⁻¹ |
| B2 (bglA A17S) | O=[N+]([O-])c1ccc(O[C@@H]2O[C@H](CO)[C@@H](O)[C@H](O)[C@H]2O)cc1 | steady-state kinetics |  | pH 5.5, 60 °C |  | kcat/Km | 131000 ± 14000 M⁻¹ s⁻¹ |
| B3 (enzyme) | Nc1ncnc2c1ncn2[C@@H]1O[C@H](COP(=O)(O)OP(=O)(O)OP(=O)(O)O)[C@@H](O)[C@H]1O | steady-state kinetics |  | pH 7.4, 24 °C, apparent, per site |  | kcat/Km | 1350 M⁻¹ s⁻¹ |
| fcl (Campylobacter jejuni, UniProt F2X7A6) | Nc1nc2c(ncn2[C@@H]2O[C@H](COP(=O)(O)OP(=O)(O)O[C@H]3O[C@@H](CCO)C(=O)[C@H](O)[C@@H]3O)[C@@H](O)[C@H]2O)c(=O)[nH]1 | steady-state kinetics |  | pH 7.5, 25 °C, apparent |  | kcat/Km | 270000 M⁻¹ s⁻¹ |
| enzyme (Bacillus subtilis, UniProt O31616) | O=C(O)CNCP(=O)(O)O | steady-state kinetics |  | pH 8, 25 °C |  | kcat/Km | 13.1 M⁻¹ s⁻¹ |
| B4 (bglA A17S/S39T/T105V) | O=[N+]([O-])c1ccc(O[C@@H]2O[C@H](CO)[C@@H](O)[C@H](O)[C@H]2O)cc1 | steady-state kinetics |  | pH 5.5, 60 °C |  | kcat/Km | 61200 ± 3600 M⁻¹ s⁻¹ |
| B5 (enzyme) | CC(=O)SCCNC(=O)CCNC(=O)[C@H](O)C(C)(C)COP(=O)(O)OP(=O)(O)OC[C@H]1O[C@@H](n2cnc3c(N)ncnc32)[C@H](O)[C@@H]1OP(=O)(O)O | steady-state kinetics |  | pH 8, 37 °C, Hill n 1.36, added: spermine 1 mM |  | kcat/Km | 130000 M⁻¹ s⁻¹ |

Some of these lines once more:
| Molecule | target or system | test | test system | setting | how to read | quantity | value |
| --- | --- | --- | --- | --- | --- | --- | --- |
| rCR L34A (Lodderomyces parapsilosis) | CC(=O)c1ccc(Cl)cc1 | steady-state kinetics |  | pH 7, 30 °C, added: NADH 0.5 mM |  | kcat/Km | 13500 M⁻¹ s⁻¹ |
| B2 (bglA A17S) | O=[N+]([O-])c1ccc(O[C@@H]2O[C@H](CO)[C@@H](O)[C@H](O)[C@H]2O)cc1 | steady-state kinetics |  | pH 5.5, 60 °C |  | kcat/Km | 131000 ± 14000 M⁻¹ s⁻¹ |
